Measurements pooled from the literature.
Parts stem from different laboratories: compare values within a part only. Changes are numbered by the printed parent chain.

Series 1
Target: Interferon regulatory factor 7, full length, phosphomimetic (IRF7, Homo sapiens, UniProt Q92985, residues 1-503, S101K/S471D/S472D/S475D/S476D/S477D/S483D/S484D/S487D)
Method: protein-binding microarray
Form: double-stranded DNA, one strand shown
Sample: in vitro
Tested at: 250 nM
Setting: 60-bp whole probe
Added: salmon DNA 0.4 mg/ml
Relative to: random background probes
Direction: higher = stronger binding
Measurement: log fluorescence
Constant ends, left off below: GCCTAGCAC … GTCTTGATTCGCTTGACGCTGCTG
Residues (chain): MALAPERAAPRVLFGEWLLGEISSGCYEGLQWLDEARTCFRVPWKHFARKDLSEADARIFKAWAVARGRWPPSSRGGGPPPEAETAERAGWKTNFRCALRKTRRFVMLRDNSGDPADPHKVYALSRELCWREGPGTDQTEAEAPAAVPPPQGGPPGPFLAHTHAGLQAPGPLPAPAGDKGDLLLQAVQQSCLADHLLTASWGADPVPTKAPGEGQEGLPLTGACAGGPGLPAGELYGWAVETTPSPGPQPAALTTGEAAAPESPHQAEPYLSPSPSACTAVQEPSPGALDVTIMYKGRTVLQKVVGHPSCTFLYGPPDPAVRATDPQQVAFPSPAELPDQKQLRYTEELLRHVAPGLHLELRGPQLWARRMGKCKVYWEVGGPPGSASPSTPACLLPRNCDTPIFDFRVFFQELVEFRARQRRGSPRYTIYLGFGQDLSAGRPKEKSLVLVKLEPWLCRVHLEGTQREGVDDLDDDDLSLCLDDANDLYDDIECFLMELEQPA
GACGATTTCAATATCGAGACGTGCTAG: 0.508 z-score
TTAGGTCTGGGGTATCGGTTAGTGCTA: 0.27 z-score
TTAGGACTGAGACTGGATTAGTGCTAG: -0.166 z-score
TTAGGTTTCGGGCTTCGGTTAGTGCTA: 4.16 z-score
CCTGGTTTTACTTTCTATCTGTGCTAG: 2.16 z-score
TCAAATCTTGAGTTAGAACTGTGCTAG: 0.0172 z-score
GACGGTTTCCTTCTCCAGACGTGCTAG: 2.63 z-score
TACGGACTGCTACTGCTGACGTGCTAG: -0.681 z-score
GACGGACTGGGGTATCCGGACGTGCTA: -0.746 z-score
TATATATCCATTATAGATGAGTGCTAG: 0.978 z-score
CACGATATCAGTATCGAGACGTGCTAG: 0.446 z-score
CTCCTTCTCTAACCTCTCTAAGTGCTA: 0.709 z-score
GACGGTATCGGTTTCTGGACGTGCTAG: 5.61 z-score
GACGATCTCAGCATCGAGACGTGCTAG: -0.149 z-score
TTAGAACGGGGGTATCGATTAGTGCTA: 1.57 z-score
TTAGGAGTGGACTATCGGTTAGTGCTA: -0.755 z-score
TCATCTATGTAGTTGATACTGTGCTAG: 0.164 z-score
GACCATTTCAGTTTCGAGACGTGCTAG: 5.43 z-score
GAGGGTTTCGACTTTCGGGACGTGCTA: 9.13 z-score
GACGGACTGGGGAATGGGGACGTGCTA: -0.418 z-score
TAAGGTATCGGGACTGGGTTAGTGCTA: 0.257 z-score

Series 2
Target: Sal-like protein 4, full length isoform B (SALL4, Homo sapiens, UniProt Q9UJQ4-2, residues 1-616)
Method: universal PBM
Form: double-stranded DNA, one strand shown
Sample: in vitro
Tested at: not given
Setting: 8-mer, flanks averaged, mean of replicates
Direction: higher = stronger binding
Measurement: E-score
Construct (chain): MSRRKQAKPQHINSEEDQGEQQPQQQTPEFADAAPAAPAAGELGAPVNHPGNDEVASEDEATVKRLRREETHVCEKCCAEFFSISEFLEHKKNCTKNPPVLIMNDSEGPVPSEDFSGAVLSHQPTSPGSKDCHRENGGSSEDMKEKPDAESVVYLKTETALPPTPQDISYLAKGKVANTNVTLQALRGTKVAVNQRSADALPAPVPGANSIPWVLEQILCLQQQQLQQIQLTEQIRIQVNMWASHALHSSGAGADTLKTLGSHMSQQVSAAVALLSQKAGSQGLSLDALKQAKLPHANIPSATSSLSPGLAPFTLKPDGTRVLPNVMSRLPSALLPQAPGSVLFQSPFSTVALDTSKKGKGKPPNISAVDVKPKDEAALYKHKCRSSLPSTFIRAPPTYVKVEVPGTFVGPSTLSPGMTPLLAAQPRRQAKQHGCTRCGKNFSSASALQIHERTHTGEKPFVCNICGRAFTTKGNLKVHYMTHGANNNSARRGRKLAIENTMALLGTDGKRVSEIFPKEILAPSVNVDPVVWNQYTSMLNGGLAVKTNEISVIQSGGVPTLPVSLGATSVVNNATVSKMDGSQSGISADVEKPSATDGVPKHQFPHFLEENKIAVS
ACTGTCGG: -0.247
CAGTGACC: -0.348
AGCGGGAT: -0.166
CATTGGCG: -0.113
ATTTGGCA: 0.158
AAACGACG: 0.0675
GCTGCTCA: -0.177
TGGTTTAA: 0.206
TAGGGGCA: -0.062
AGCGACAA: 0.0364
AAGGCGTA: 0.00886
AACGACAC: -0.029
CGCTGCAC: -0.249
TAGATTAA: 0.206
CCCCGCTA: -0.172
ACCTAACG: -0.0325
CACGTACA: 0.0638
ACCGGCAT: -0.0687
CCGGCATA: -0.142
ATTCGGTG: -0.0249
CACCCGGC: -0.393
AAGTGTAA: 0.13
ACAGATCA: -0.0742
AGAGGTAA: 0.098
CTTCCCCA: -0.28

Series 3
Target: Histone acetyltransferase KAT6A, both winged helices, GST fusion (KAT6A, Homo sapiens, UniProt Q92794, residues 1-181)
Method: protein binding microarray
Form: double-stranded DNA, one strand shown
Sample: in vitro
Tested at: not given
Setting: 8-mer, flanks averaged, mean of 2 arrays, mostly near background
Relative to: not given
Direction: higher = stronger binding
Measurement: E-score
Residues (chain): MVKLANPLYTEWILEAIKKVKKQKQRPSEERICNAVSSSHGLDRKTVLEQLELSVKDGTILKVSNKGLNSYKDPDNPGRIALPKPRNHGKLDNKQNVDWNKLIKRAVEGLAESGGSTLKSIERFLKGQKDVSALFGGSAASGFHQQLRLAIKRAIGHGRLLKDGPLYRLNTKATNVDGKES
CAGCCATA: -0.0549
GAGCTCCA: -0.123
AAACGTAT: 0.0485
CAGGTTTA: -0.0558
ATTTTATG: -5e-05
CGATCTCC: -0.0332
ATCCGCAC: 0.215
AAAACAGG: -0.228
GGCAGGCA: -0.12
CTGCTGGC: -0.0793
ACTGCGGA: 0.243
ACCCAGTC: -0.159
TACCTATA: -0.277
CTGGTTTA: -0.088
AGGAACGG: 0.143
GTATTCTA: -0.0486
CCAATAGG: -0.267
ATATCCGC: 0.22
ACAGACCG: 0.112
CGTTGTCA: -0.0285

Series 4
Target: ABI1, truncated, D143A, DHFR fusion (Arabidopsis thaliana)
Method: DHFR PCA, deep sequencing
Sample: yeast
Setting: methotrexate growth selection, single substitutions
Added: (+)-ABA 2500 µM
Relative to: wild-type fitted maximum
Direction: higher = stronger binding
Measurement: relative binding score
Parent: PYL1, truncated, DHFR fusion (Arabidopsis thaliana); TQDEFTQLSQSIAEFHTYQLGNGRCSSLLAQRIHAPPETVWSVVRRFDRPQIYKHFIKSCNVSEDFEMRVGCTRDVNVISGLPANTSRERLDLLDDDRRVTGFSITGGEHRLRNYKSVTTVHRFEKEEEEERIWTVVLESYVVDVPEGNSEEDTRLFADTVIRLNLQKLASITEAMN
H34W: 98.1%
E152Y: 91.3%
T173S: 96.5%
S140L: 12%
E127W: 97.6%
H122L: 86.4%
S140P: -0.00983%
G108A: 80%
I79H: 96.1%
T119I: 100%
R69Q: 97.7%
W134A: 100%
R113F: 105%
E89A: 23.1%
D96N: 97%
L20D: 95%
Q167Y: 87.3%
T6P: 110%
I52S: 98.6%
G21N: 99.8%
D48F: 63.9%
Y115L: 83.2%
S63D: 99.4%
I172W: 89.2%
R49W: 81.2%

Series 5
Target: UBE2H UBC core domain (UniProt P62256)
UniProt P62256, sequence (whole entry, looked up): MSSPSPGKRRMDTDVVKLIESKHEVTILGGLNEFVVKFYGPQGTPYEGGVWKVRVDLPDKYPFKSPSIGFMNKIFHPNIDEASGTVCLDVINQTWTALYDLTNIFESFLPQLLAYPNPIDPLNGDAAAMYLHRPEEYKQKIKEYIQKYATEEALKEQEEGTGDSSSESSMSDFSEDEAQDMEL
Method: yeast two-hybrid
Sample: yeast
Setting: mostly zero background
Relative to: not given
Direction: higher = stronger interaction
Measurement: lacZ reporter activity
B1: MID2 RING domain (UniProt Q9UJV3); chain KMETLESELTCPICLELFEDPLLLPCAHSLCFSCAHRILVSSCSSGESIEPITAFQCPTCRYVISLNHRGL
B2: NFX1 RING domain (UniProt Q12986); chain IEQLTTEKYECMVCCELVRVTAPVWSCQSCYHVFHLNCIKKWARSPASQADGQSGWRCPACQNVSAHVPNTY
B3: HLTF RING domain (UniProt Q14527); chain LILSSGSDEECAICLDSLTVPVITHCAHVFCKPCICQVIQNEQPHAKCPLCRNDIHEDNLLE
B4: RNF103 RING domain (UniProt O00237); chain WPADMLHCTECVVCLENFENGCLLMGLPCGHVFHQNCIVMWLAGGRHCCPVCRWPSYKKKQPY
B5: BFAR RING domain (UniProt Q9NZS9); chain GPQISVSEFSCHCCYDILVNPTTLNCGHSFCRHCLALWWASSKKTECPECREKWEGFPKVS
B6: RING1 RING domain (UniProt Q06587); chain SPRSLHSELMCPICLDMLKNTMTTKECLHRFCSDCIVTALRSGNKECPTCRKKLVSKRSLR
B7: MARCHF1 RING domain (UniProt Q8TCQ1); chain TAPRSQSRLSVCPSTQDICRICHCEGDEESPLITPCRCTGTLRFVHQSCLHQWIKSSDTRCCELCKYDFIMETKLKPLRKWE
B8: TRIM11 RING domain (UniProt Q96F44); chain LSTNLQEEATCAICLDYFTDPVMTDCGHNFCRECIRRCWGQPEGPYACPECRELSPQRNLRP
B9: ZNRF4 RING domain (UniProt Q8WWF5); chain VRTFTWHNDLCAICLDEYEEGDQLKILPCSHTYHCKCIDPWFSQAPRRSCPVCKQSVAATEDSF
B10: RUFY1 RING domain (UniProt Q96T51); chain QALKGHAWLKDDEATHCRQCEKEFSISRRKHHCRNCGHIFCNTCSSNELALPSYPKPVRVCDSCHTLLLQRCSSTAS
B11: RNF182 RING domain (UniProt Q8N6D2); chain AESQASDELECKICYNRYNLKQRKPKVLECCHRVCAKCLYKIIDFGDSPQGVIVCPFCRFETCLPDDEV
B12: VPS8 RING domain (UniProt Q8N3P4); chain TRGLNPKQDYCSICLQQYKRRQEMADEIIVFSCGHLYHSFCLQNKECTVEFEGQTRWTCYKCSSSNKVGKLSE
B1 (MID2 RING domain): 0
B2 (NFX1 RING domain): 0
FDPPLESKYECPICLMALREAVQTPCGHRFCKACIIKSIRDAGHKCPVDNEILLENQLFP (TRAF6 RING domain (UniProt Q9Y4K3)): 0
B3 (HLTF RING domain): 0
B4 (RNF103 RING domain): 1290
B5 (BFAR RING domain): 0
FAEQPSVKLCCQLCCSVFKDPVITTCGHTFCRRCALKSEKCPVDNVKLTVVVNNI (TRAF7 RING domain (UniProt Q6Q0C0)): 0
EIKEYKARLTCPCCNTRKKDAVLTKCFHVFCFECVRGRYEARQRKCPKCNAAFGAHDFHR (RNF40 RING domain (UniProt O75150)): 0
B6 (RING1 RING domain): 0
B7 (MARCHF1 RING domain): 0
B8 (TRIM11 RING domain): 0
B9 (ZNRF4 RING domain): 0
LEALSSDFLACKICLEQLRAPKTLPCLHTYCQDCLAQLADGGRVRCPECRETVPVPPEGV (TRIM56 RING domain (UniProt Q9BRZ2)): 8240
B10 (RUFY1 RING domain): 0
B11 (RNF182 RING domain): 0
B12 (VPS8 RING domain): 0

Excerpt of the above (series 4):
T119I: 100%
R69Q: 97.7%
W134A: 100%
R113F: 105%
E89A: 23.1%
D96N: 97%
L20D: 95%
Q167Y: 87.3%
T6P: 110%
